Experimental data collected from several papers.
Lines come from different studies, so protocols differ.
Organism: Escherichia coli

Structure (SMILES) = C[C@@H](O)[C@H](NC(=O)[C@H](Cc1c[nH]c2ccccc12)NC(=O)[C@H](Cc1c[nH]c2ccccc12)NC(=O)[C@H](Cc1c[nH]c2ccccc12)NC(=O)[C@@H](NC(=O)[C@H](Cc1c[nH]c2ccccc12)NC(=O)[C@H](CCCNC(=N)N)NC(=O)[C@@H](N)CCCNC(=N)N)[C@@H](C)O)C(=O)N[C@@H](Cc1c[nH]c2ccccc12)C(=O)N[C@@H](CCCNC(=N)N)C(=O)N[C@@H](CCCNC(=N)N)C(N)=O; test = broth microdilution; system = 25922, Mueller-Hinton broth; setting = 24 h, 37 °C, lowest concentration, 95% inhibition, together with: BSA; MIC = 2 µM
Structure (SMILES) = CC[C@H](C)[C@H](NC(=O)CNC(=O)[C@H](CC(=O)O)NC(=O)[C@H](CCCNC(=N)N)NC(=O)[C@@H](NC(=O)[C@H](CC(N)=O)NC(=O)[C@H](CCCNC(=N)N)NC(=O)CNC(=O)[C@@H](NC(=O)[C@H](CCCCN)NC(=O)[C@H](CCC(=O)O)NC(=O)[C@@H](NC(=O)[C@H](CCCCN)NC(=O)[C@H](CCCCN)NC(=O)[C@H](Cc1ccccc1)NC(=O)[C@@H](NC(=O)[C@H](CCCCN)NC(=O)[C@H](Cc1c[nH]c2ccccc12)NC(=O)[C@@H](N)CCCNC(=N)N)[C@@H](C)CC)[C@@H](C)CC)C(C)C)C(C)C)C(=O)N[C@H](C(=O)N[C@@H](CCCCN)C(=O)N[C@@H](C)C(=O)NCC(=O)N1CCC[C@H]1C(=O)N[C@@H](C)C(=O)N[C@H](C(=O)N[C@@H](C)C(=O)N[C@H](C(=O)N[C@H](C(=O)NCC(=O)N[C@@H](CCC(N)=O)C(=O)N[C@@H](C)C(=O)N[C@@H](C)C(=O)N[C@H](C(=O)N[C@H](C(=O)N[C@H](C(=O)N[C@@H](CCCCN)C(N)=O)C(C)C)C(C)C)[C@@H](C)O)C(C)C)C(C)C)C(C)C)[C@@H](C)CC; system = NCCP 16046 carbapenem-resistant; MIC = 1 µM
Structure (SMILES) = C[C@H]1COCCN1c1nc(NCc2cccnc2C(F)(F)F)c2cccnc2n1; test = broth microdilution; system = 77; MIC = 128 µg/mL
Structure (SMILES) = CC[C@H](C)[C@H](NC(=O)[C@H](CC(C)C)NC(=O)[C@H](CCCCN)NC(=O)[C@@H](NC(=O)[C@H](C)NC(=O)[C@H](CCC(=O)O)NC(=O)[C@H](Cc1c[nH]cn1)NC(=O)[C@@H](NC(=O)[C@H](CCCCN)NC(=O)[C@H](CCC(N)=O)NC(=O)[C@H](Cc1ccccc1)NC(=O)[C@@H](N)C(C)C)[C@@H](C)CC)[C@@H](C)CC)C(N)=O; test = CLSI broth microdilution; system = ATCC 25922; setting = 18 h, 37 °C; MIC = > 128 µM
Structure (SMILES) = CC[C@H](C)[C@H](N)C(=O)N[C@@H](CC(C)C)C(=O)NCC(=O)N[C@H](CCCNC(=N)N)C(=O)N[C@H](C(=O)N[C@@H](Cc1c[nH]c2ccccc12)C(=O)N[C@@H](CCCCN)C(=O)NCC(=O)N[C@H](C(=O)N[C@@H](CCCCN)C(=O)N[C@@H](CC(=O)O)C(=O)N[C@H](C(=O)N[C@@H](CC(C)C)C(N)=O)[C@@H](C)CC)[C@@H](C)CC)[C@@H](C)CC; test = broth microdilution; system = ATCC 25922, Mueller-Hinton broth; setting = 16 h, 37 °C; MIC = 6.25 µM
Structure (SMILES) = C[C@@H](O)[C@H]1C(=O)N2C(C(=O)O)=C(S[C@@H]3CN[C@H](C(=O)N(C)C)C3)[C@H](C)[C@H]12; system = ATCC 25922, no carbapenemase; MIC = ≤ 0.0625 µg/mL
Structure (SMILES) = CC(C)C[C@H](NC(=O)[C@H](Cc1ccc(O)cc1)NC(=O)[C@@H]1CCCN1C(=O)[C@@H]1CCCN1C(=O)[C@H](CCCCN)NC(=O)[C@H](CC(=O)O)NC(=O)[C@@H](N)C(C)C)C(=O)N1CCC[C@H]1C(=O)N[C@@H](CCCNC(=N)N)C(=O)N1CCC[C@H]1C(=O)N[C@@H](CCCNC(=N)N)C(=O)N1CCC[C@H]1C(=O)N1CCC[C@H]1C(=O)N[C@@H](CCCNC(=N)N)C(=O)N[C@@H](CCCNC(=N)N)C(N)=O; test = broth microdilution; system = MRE600; setting = 16 h, 37 °C, 25% Mueller-Hinton broth; MIC = 2 µg/mL
Structure (SMILES) = C[C@@H](O)[C@H]1C(=O)N2C(C(=O)O)=C(S[C@@H]3CN[C@H](C(=O)Nc4cccc(C(=O)O)c4)C3)[C@H](C)[C@H]12; system = BL21(DE3) wild type; MIC = < 0.09 µg/mL
Structure (SMILES) = CCN1CCN(C(=O)N[C@@H](C(=O)N[C@@H]2C(=O)N3[C@@H]2SC(C)(C)[C@@H]3C(=O)O)c2ccccc2)C(=O)C1=O; test = broth microdilution; system = ATCC 35218, low-level TEM-1; setting = no clavulanic acid; MIC = > 200 µg/mL
Structure (SMILES) = CC[C@H](C)[C@H](NC(=O)CNC(=O)[C@H](CC(=O)O)NC(=O)[C@H](CCCNC(=N)N)NC(=O)[C@@H](NC(=O)[C@H](CC(N)=O)NC(=O)[C@H](CCC(=O)O)NC(=O)CNC(=O)[C@@H](NC(=O)[C@H](CCCCN)NC(=O)[C@H](CCC(=O)O)NC(=O)[C@@H](NC(=O)[C@H](CCCCN)NC(=O)[C@H](CCCCN)NC(=O)[C@H](Cc1ccccc1)NC(=O)[C@@H](NC(=O)[C@H](CCCCN)NC(=O)[C@H](Cc1c[nH]c2ccccc12)NC(=O)[C@@H](N)CCCNC(=N)N)[C@@H](C)CC)[C@@H](C)CC)C(C)C)C(C)C)C(=O)N[C@H](C(=O)N[C@@H](CCCCN)C(=O)N[C@@H](C)C(=O)NCC(=O)N1CCC[C@H]1C(=O)N[C@@H](C)C(=O)N[C@H](C(=O)N[C@@H](C)C(=O)N[C@H](C(=O)N[C@H](C(=O)NCC(=O)N[C@@H](CCC(N)=O)C(=O)N[C@@H](C)C(=O)N[C@@H](C)C(=O)N[C@H](C(=O)N[C@H](C(=O)N[C@H](C(=O)N[C@@H](CCCCN)C(N)=O)C(C)C)C(C)C)[C@@H](C)O)C(C)C)C(C)C)C(C)C)[C@@H](C)CC; system = KCTC 1682, Mueller-Hinton broth; setting = 16 h, 37 °C; scale = growth inhibition over 99%; MIC = 2 µM
Structure (SMILES) = CC1(C)SC2C(NC(=O)C(NC(=O)C3=C(O)C(Cc4ccc(O)cc4)NC3=O)c3ccccc3)C(=O)N2C1C(=O)O (stereo not drawn); test = broth microdilution; system = Keio mutant JW2142-1; MIC = 50 µg/mL
Structure (SMILES) = CC[C@H](C)[C@H](NC(=O)[C@H](CCCCN)NC(=O)[C@H](CC(=O)O)NC(=O)[C@H](CC(C)C)NC(=O)[C@@H](NC(=O)[C@H](CC(N)=O)NC(=O)[C@H](CC(C)C)NC(=O)[C@@H](NC(=O)[C@H](Cc1ccccc1)NC(=O)[C@H](CCCCN)NC(=O)[C@H](CCCCN)NC(=O)CNC(=O)[C@H](C)NC(=O)[C@H](CC(N)=O)NC(=O)[C@H](CCCCN)NC(=O)[C@H](Cc1ccccc1)NC(=O)[C@H](CC(N)=O)NC(=O)[C@H](CCC(=O)O)NC(=O)[C@H](Cc1c[nH]c2ccccc12)NC(=O)[C@H](CC(C)C)NC(=O)[C@@H](N)CO)[C@@H](C)CC)[C@@H](C)CC)C(=O)N[C@@H](CCCNC(=N)N)C(N)=O; system = ATCC 8739; setting = overnight, 37 °C, together with: 1 mM MgCl2; MIC = 2 µM
Structure (SMILES) = CC[C@H](C)[C@H](NC(=O)[C@H](CCCNC(=N)N)NC(=O)[C@H](CCCNC(=N)N)NC(=O)[C@H](CCCNC(=N)N)NC(=O)[C@H](CCCNC(=N)N)NC(=O)[C@H](CC(C)C)NC(=O)[C@H](CCCNC(=N)N)NC(=O)[C@H](CO)NC(=O)[C@@H](N)CO)C(=O)N[C@H](C(=O)N[C@@H](CC(C)C)C(=O)N[C@@H](CCCNC(=N)N)C(=O)N[C@@H](CCCNC(=N)N)C(=O)N[C@@H](CCCNC(=N)N)C(=O)N[C@@H](CCCNC(=N)N)C(=O)N[C@@H](Cc1ccccc1)C(=O)N[C@@H](CO)C(=O)N[C@@H](C)C(=O)N[C@@H](Cc1ccc(O)cc1)C(N)=O)C(C)C; test = broth microdilution; system = ATCC 25922; setting = highest value reported; MIC = 32 µM
Structure (SMILES) = CC[C@H](C)[C@H](N)C(=O)N[C@@H](CCCNC(=N)N)C(=O)N[C@H](C(=O)N[C@@H](Cc1c[nH]c2ccccc12)C(=O)N[C@@H](CCCCN)C(=O)N[C@@H](CCCCN)C(=O)N[C@@H](Cc1ccccc1)C(=O)N[C@H](C(=O)N[C@@H](CCCNC(=N)N)C(=O)N[C@@H](CCCCN)C(=O)N[C@@H](CCSC)C(=O)N[C@@H](CCCCN)C(=O)N[C@@H](C)C(=O)N[C@H](C(=O)N[C@@H](Cc1ccc(O)cc1)C(=O)N[C@@H](Cc1c[nH]cn1)C(N)=O)[C@@H](C)CC)C(C)C)C(C)C; test = broth dilution; system = ATCC 25922, Mueller-Hinton broth; setting = 24 h, 37 °C; MIC = 50 µM
Structure (SMILES) = CC(C)Oc1c(NC(=O)c2ccc(NC(=O)[C@H](CC(N)=O)NC(=O)c3ccc(/N=N/c4ccc(N(C)C)cc4)cc3)cc2)ccc(C(=O)Nc2ccc(C(=O)O)cc2)c1O; system = BW25113; setting = 18 h, 37 °C, dark-adapted state; MIC = 0.13 µg/mL
Structure (SMILES) = CC1(C)CC[C@]2(C(=O)O)CC[C@]3(C)C(=CC[C@@H]4[C@@]5(C)CC[C@H](O)C(C)(C)[C@@H]5CC[C@]43C)[C@@H]2C1; system = D3, NDM-1/OXA-1; MIC = 512 µg/mL
Structure (SMILES) = CCCCCCC/C=C/C(=O)N1C(=O)/C(=C(\O)C2CCNCC2)C(=O)C1CC(C)C (stereo not drawn); system = K12 ΔtolC; MIC = 6.25 µg/mL
Structure (SMILES) = CC[C@H](C)[C@H](NC(=O)[C@H](CC(C)C)NC(=O)[C@H](CCCNC(=N)N)NC(=O)[C@@H](N)CCCNC(=N)N)C(=O)N[C@@H](CC(C)C)C(=O)N[C@H](C(=O)N[C@@H](CCCCN)C(=O)N[C@H](C(=O)NCC(=O)N1CCC[C@H]1C(=O)N[C@H](C(=O)N[C@H](C(=O)N[C@@H](Cc1ccc(O)cc1)C(=O)N[C@@H](CCCCN)C(=O)N[C@@H](Cc1ccc(O)cc1)C(=O)N[C@@H](Cc1ccccc1)C(=O)N[C@@H](CCCCN)C(=O)N[C@@H](CCCCN)C(=O)N[C@@H](CCC(N)=O)C(=O)N[C@@H](CC(C)C)C(=O)N[C@@H](CCCCN)C(=O)N[C@@H](CCCCN)C(=O)N[C@@H](CC(C)C)C(N)=O)[C@@H](C)CC)[C@@H](C)CC)[C@@H](C)O)[C@@H](C)O; test = broth microdilution; system = KCTC 1682, Mueller-Hinton broth; setting = 24 h, 37 °C; MIC = 8 µM
Structure (SMILES) = N=C(N)c1cccc(OCc2ccc(COc3cccc(C(=N)N)c3)cc2)c1; system = mcr-1; setting = 20 h, in combination, checkerboard, together with: rifampicin; MIC = 50 µg/mL
Structure (SMILES) = CC(C)C[C@@H]1NC(=O)[C@H](Cc2ccccc2)NC(=O)[C@H](Cc2ccc(O)cc2)NC(=O)[C@H](CC(C)C)NC(=O)[C@H](CCC(=O)O)NC(=O)[C@H](Cc2ccccc2)NC(=O)[C@H](CCCNC(=N)N)NC(=O)[C@H](CCC(N)=O)NC(=O)[C@H](CC(C)C)NC(=O)[C@H](CC(=O)O)NC(=O)[C@@H]2CCCN2C(=O)[C@H](CCCCN)NC(=O)[C@H](C(C)C)NC(=O)[C@H](CC(N)=O)NC(=O)[C@H](Cc2ccc(O)cc2)NC(=O)[C@H]([C@@H](C)O)NC(=O)[C@@H](N)CSSC[C@@H](C(=O)O)NC(=O)[C@H]([C@@H](C)O)NC(=O)[C@H](C(C)C)NC(=O)[C@H]([C@@H](C)O)NC(=O)CNC1=O; test = broth dilution; system = laboratory strain; setting = 24 h; MIC = > 40 µM
Structure (SMILES) = CC(C)C[C@H](NC(=O)[C@@H](NC(=O)[C@H](CCCCN)NC(=O)[C@H](CCCCN)NC(=O)[C@@H](N)CC(C)C)C(C)C)C(=O)N[C@@H](CCCCN)C(=O)N[C@@H](C)C(=O)N[C@@H](C)C(=O)N[C@@H](C)C(=O)N[C@@H](CCCCN)C(=O)O; system = TG1; MIC = > 25 µM
